Results of several laboratories.
Lines come from different studies, so protocols differ. Values joined by “and” are separate records of one study, mostly repeats; a detail may differ. Numbers after ± are the reported error.
ampC: Beta-lactamase (ampC, Escherichia coli K-12, UniProt P00811)
UniProt P00811, sequence (whole entry, looked up): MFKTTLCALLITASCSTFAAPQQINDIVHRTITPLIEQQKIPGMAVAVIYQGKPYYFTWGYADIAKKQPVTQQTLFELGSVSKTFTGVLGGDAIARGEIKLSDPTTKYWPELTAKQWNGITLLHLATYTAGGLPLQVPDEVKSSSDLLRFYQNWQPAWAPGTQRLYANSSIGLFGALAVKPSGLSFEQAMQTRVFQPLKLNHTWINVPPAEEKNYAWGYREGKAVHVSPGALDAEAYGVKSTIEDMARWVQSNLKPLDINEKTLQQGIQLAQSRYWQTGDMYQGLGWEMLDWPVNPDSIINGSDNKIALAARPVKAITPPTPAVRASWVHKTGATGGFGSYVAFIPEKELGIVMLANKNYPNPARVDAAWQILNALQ
HLA class I histocompatibility antigen, A alpha chain allele A*24:02: HLA class I histocompatibility antigen, A alpha chain, allele A*24:02 (Homo sapiens, UniProt P04439)
HLA class I histocompatibility antigen, A alpha chain allele A*02:01: HLA class I histocompatibility antigen, A alpha chain, allele A*02:01 (Homo sapiens, UniProt P04439)
YES1 SH2 domain: Tyrosine-protein kinase Yes, SH2 domain (YES1, Homo sapiens, UniProt P07947)
UniProt P63096, sequence (whole entry, looked up): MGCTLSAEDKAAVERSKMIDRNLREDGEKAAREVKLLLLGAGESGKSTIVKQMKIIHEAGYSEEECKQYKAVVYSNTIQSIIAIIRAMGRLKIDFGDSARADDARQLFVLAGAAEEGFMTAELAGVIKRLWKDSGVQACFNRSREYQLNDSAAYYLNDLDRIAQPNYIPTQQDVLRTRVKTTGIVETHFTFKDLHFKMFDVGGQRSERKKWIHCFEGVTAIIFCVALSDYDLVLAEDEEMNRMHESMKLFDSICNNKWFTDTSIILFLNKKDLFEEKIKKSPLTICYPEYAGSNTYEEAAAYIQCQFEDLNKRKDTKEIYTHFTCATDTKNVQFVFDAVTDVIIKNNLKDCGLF
UniProt P35372, sequence (whole entry, looked up): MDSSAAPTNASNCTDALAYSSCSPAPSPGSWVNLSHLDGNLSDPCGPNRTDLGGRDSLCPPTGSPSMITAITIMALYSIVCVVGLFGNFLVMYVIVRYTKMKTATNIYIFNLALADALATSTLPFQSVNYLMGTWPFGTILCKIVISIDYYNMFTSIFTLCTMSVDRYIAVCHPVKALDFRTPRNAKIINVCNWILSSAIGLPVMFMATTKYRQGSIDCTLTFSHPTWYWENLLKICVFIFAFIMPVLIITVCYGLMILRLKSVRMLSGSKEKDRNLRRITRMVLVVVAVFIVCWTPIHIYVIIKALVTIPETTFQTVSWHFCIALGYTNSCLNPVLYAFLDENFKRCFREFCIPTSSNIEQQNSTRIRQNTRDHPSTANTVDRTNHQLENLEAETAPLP
UniProt P03023, sequence (whole entry, unmodified, looked up): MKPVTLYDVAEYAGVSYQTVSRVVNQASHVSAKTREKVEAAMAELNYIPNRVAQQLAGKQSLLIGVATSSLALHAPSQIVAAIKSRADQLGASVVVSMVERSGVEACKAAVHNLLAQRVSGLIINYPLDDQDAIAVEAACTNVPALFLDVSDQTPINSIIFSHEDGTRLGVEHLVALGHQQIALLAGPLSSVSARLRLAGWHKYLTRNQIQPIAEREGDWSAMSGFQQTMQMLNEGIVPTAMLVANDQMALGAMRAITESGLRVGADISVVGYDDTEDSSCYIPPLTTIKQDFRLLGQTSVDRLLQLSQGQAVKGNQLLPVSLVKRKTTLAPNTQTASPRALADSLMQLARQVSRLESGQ
UniProt P07947, sequence (whole entry, looked up): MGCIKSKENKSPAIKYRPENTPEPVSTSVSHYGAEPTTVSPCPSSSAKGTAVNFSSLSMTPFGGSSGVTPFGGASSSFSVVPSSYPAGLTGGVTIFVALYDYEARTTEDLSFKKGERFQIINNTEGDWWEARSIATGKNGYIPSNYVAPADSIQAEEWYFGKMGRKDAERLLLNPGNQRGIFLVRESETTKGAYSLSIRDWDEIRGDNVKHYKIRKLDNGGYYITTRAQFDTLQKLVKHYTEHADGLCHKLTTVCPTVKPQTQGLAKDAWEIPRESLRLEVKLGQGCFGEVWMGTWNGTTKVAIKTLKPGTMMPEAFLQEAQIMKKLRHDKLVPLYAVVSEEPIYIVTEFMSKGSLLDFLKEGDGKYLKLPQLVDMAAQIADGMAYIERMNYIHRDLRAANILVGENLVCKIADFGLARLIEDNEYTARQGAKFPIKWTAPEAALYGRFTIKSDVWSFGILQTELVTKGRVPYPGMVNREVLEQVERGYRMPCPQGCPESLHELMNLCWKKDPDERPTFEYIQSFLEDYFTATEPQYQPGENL
UniProt P32246, sequence (whole entry, looked up): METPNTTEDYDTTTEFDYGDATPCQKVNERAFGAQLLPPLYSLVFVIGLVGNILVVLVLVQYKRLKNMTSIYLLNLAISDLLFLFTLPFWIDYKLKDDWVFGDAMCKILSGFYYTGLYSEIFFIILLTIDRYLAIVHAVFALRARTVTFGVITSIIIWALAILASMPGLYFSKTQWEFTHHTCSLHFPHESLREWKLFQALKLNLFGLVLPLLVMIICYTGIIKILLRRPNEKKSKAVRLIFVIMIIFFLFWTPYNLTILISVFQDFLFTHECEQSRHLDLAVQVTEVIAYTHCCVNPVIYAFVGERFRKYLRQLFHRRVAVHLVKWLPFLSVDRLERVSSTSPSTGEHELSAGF
UniProt P16885, sequence (whole entry, looked up): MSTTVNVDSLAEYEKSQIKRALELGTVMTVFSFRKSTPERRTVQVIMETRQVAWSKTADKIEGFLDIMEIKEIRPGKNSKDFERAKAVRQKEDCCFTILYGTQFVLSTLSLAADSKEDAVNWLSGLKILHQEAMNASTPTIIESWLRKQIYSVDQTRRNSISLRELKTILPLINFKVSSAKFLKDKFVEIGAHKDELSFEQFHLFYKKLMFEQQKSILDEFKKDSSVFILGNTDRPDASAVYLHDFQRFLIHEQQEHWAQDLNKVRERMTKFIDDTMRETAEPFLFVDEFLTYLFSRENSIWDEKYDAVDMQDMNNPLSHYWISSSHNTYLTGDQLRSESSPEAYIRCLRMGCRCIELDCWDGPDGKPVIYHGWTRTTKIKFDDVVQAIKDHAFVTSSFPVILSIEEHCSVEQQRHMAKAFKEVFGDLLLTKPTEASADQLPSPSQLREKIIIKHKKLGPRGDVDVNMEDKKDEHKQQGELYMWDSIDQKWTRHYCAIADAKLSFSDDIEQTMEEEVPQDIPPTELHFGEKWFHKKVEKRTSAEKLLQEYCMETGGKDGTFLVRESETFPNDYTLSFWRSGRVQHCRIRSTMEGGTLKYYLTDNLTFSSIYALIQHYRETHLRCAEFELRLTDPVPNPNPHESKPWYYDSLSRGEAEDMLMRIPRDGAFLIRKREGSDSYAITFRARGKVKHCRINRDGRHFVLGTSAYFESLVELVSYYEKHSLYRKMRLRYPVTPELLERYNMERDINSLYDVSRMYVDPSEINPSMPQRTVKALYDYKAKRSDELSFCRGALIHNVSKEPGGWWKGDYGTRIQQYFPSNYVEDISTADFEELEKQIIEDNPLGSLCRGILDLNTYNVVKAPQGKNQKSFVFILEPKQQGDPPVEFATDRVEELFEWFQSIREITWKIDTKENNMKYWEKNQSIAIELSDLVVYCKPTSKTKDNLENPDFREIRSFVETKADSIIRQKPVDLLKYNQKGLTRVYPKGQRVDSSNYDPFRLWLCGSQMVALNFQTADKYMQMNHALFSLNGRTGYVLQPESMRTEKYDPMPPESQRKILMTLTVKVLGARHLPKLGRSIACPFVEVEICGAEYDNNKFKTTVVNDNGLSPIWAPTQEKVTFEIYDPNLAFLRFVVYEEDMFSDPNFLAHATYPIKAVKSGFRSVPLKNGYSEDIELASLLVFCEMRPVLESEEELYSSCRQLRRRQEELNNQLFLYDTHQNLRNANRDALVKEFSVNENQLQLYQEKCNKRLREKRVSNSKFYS
UniProt Q9ULK4, sequence (whole entry, looked up): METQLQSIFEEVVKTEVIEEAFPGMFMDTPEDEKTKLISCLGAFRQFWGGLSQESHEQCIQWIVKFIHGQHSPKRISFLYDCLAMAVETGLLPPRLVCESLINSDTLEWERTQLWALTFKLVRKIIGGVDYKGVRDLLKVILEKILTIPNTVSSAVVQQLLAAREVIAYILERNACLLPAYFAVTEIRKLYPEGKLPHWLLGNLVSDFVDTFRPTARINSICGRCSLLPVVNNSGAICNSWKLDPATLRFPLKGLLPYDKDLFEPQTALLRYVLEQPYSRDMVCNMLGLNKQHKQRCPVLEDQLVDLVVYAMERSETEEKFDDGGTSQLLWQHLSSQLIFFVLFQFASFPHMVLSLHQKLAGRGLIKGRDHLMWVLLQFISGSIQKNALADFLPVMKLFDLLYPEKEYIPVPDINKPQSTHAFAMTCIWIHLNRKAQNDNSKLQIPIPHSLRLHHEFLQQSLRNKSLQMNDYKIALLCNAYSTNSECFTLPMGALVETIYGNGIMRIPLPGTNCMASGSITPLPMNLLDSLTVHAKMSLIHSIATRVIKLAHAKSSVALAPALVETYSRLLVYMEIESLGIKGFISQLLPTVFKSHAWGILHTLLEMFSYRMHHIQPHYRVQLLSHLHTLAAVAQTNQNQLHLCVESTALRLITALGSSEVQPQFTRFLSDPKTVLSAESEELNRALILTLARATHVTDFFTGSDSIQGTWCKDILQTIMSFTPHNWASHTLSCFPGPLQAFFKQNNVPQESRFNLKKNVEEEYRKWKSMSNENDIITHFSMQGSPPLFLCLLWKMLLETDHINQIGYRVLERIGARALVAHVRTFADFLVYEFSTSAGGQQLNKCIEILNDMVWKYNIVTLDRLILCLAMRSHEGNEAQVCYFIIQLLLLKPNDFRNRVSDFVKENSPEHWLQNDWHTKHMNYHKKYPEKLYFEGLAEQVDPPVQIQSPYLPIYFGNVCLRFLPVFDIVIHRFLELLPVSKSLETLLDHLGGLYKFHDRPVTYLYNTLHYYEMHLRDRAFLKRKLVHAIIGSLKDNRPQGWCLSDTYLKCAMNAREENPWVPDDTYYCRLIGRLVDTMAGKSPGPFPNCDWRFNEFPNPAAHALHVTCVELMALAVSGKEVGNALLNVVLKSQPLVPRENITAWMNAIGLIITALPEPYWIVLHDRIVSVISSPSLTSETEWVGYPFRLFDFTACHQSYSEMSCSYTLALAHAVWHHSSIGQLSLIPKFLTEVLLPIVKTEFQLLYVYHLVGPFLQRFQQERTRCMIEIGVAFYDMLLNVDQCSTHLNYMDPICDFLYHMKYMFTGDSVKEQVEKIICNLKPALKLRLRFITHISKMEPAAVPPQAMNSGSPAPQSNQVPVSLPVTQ

Compound	tested on	test	system	setting	scale	measurement	result
CC(C)S[C@@H]1O[C@H](CO)[C@H](O)[C@H](O)[C@H]1O	lacI (Escherichia coli, UniProt P03023, D149C)	binding, fluorescence titration		no operator DNA		Kd	6 ± 0.3 µM
COc1cc(CCC[P+](c2ccccc2)(c2ccccc2)c2ccccc2)c(OC)c2c1OCO2.[I-]	SN12C	SRB				GI50	-5.59 log M
COc1cc(Nc2ncc(F)c(Nc3ccc4c(n3)NC(=O)C(C)(C)O4)n2)cc(OC)c1OC	CCR1 (Homo sapiens, UniProt P32246)					IC50	> 10 µM
COC(=O)c1csc(CNS(=O)(=O)c2cc(Cl)cc(Cl)c2O)n1	ampC					Ki	69.2 µM
C[C@@H](O)[C@@H](CO)NC(=O)[C@@H](CCCNC(=N)N)NC(=O)[C@@H]1CCCN1C(=O)[C@@H]1CSSC[C@H](NC(=O)[C@H](Cc2ccccc2)NC(=O)CN2CCN(CC(=O)O)CCN(CC(=O)O)CCN(CC(=O)O)CC2)C(=O)N[C@@H](Cc2ccc(O)cc2)C(=O)N[C@@H](Cc2ccccc2)C(=O)N[C@@H](CCC(N)=O)C(=O)N[C@@H](CC(N)=O)C(=O)N1 [gallium-68 labelled]			Wistar rat, healthy, Pituitary gland	intravenous, 8 MBq, 120 min		tissue uptake	0.2 %ID/g
O=S(=O)(NCc1cc(-c2ccccc2)n[nH]1)c1cc(Cl)cc(Cl)c1O	ampC					Ki	101 µM
C[C@H]1CN(c2n[nH]c3nc(N[C@H]4CC[C@H](NS(=O)(=O)CCC(F)(F)F)CC4)ncc23)CCO1	MED23 (Homo sapiens, UniProt Q9ULK4)	biochemical				IC50	≥ 20 µM
CC(C)C[C@H](NC(=O)[C@H](CCC(=O)O)NC(=O)[C@H](CC(C)C)NC(=O)[C@@H]1CCCN1C(=O)[C@H](CCCCN)NC(=O)[C@H](CO)NC(=O)[C@H](Cc1ccc(O)cc1)NC(=O)[C@@H](NC(=O)[C@@H](N)Cc1ccc(O)cc1)[C@@H](C)O)C(=O)O	HLA class I histocompatibility antigen, A alpha chain allele A*24:02	binding				IC50	8.39 µM
OC[C@H]1O[C@@H](OCCc2ccccc2)[C@H](O)[C@@H](O)[C@H]1O	lacI (Escherichia coli, UniProt P03023, D149C/N125C)	operator DNA release, nitrocellulose filter binding		together with: O1 operator DNA		EC50	> 1000 µM
COc1ccc(N2C(=O)N(c3c(C)cccc3Cl)Cc3cnc(Nc4ccc(C5CCN(C)CC5)cc4OC)nc32)nc1	BTK (Homo sapiens, UniProt Q06187)	kinase activity		0.5 µM		inhibition	95%
CC[C@H](C)[C@H](NC(=O)[C@H](Cc1ccccc1)NC(=O)[C@H](CCC(=O)O)NC(=O)[C@H](CCCNC(=N)N)NC(=O)[C@H](C)NC(=O)[C@H](C)NC(=O)[C@H](CCC(N)=O)NC(=O)[C@H](CCC(=O)O)NC(=O)[C@H](CCC(=O)O)NC(=O)[C@H](CC(C)C)NC(=O)[C@H](Cc1ccc(O)cc1)NC(=O)[C@H](CO)NC(=O)[C@H](CO)NC(=O)[C@@H](NC(=O)[C@H](CC(=O)O)NC(=O)[C@H](CO)NC(=O)[C@@H](NC(=O)[C@H](Cc1ccccc1)NC(=O)[C@@H](NC(=O)CNC(=O)[C@H](CCC(=O)O)NC(=O)[C@H](C)NC(=O)CCc1c[nH]cn1)[C@@H](C)O)[C@@H](C)O)C(C)C)C(=O)N[C@@H](C)C(=O)N[C@@H](Cc1c[nH]c2ccccc12)C(=O)N[C@@H](CC(C)C)C(=O)N[C@H](C(=O)N[C@@H](CCCNC(=N)N)C(=O)NCC(=O)N[C@@H](CCCNC(=N)N)C(=O)N[C@@H](CCCCNC(=O)COCCOCCNC(=O)COCCOCCNC(=O)CC[C@H](NC(=O)CCCCCCCCCCCCCCCCC(=O)O)C(=O)O)C(=O)NCC(=O)NCC(=O)N[C@@H](CO)C(=O)N[C@@H](CCCCNc1c(NCCCCCN(O)C(=O)CCC(=O)NCCCCCN(O)C(=O)CCC(=O)NCCCCCN(O)C(C)=O)c(=O)c1=O)C(=O)O)C(C)C [zirconium-89 labelled]			rat, liver	sc, 3 nmol/kg, 72 h, ex vivo		tissue uptake	0.64 %ID/g
CC[C@H](C)[C@H](NC(=O)[C@@H]1CCCN1C(=O)[C@H](Cc1c[nH]cn1)NC(=O)[C@H](CCCCN)NC(=O)[C@H](Cc1ccc(O)cc1)NC(=O)[C@@H](NC(=O)[C@@H](N)Cc1ccc(O)cc1)[C@@H](C)O)C(=O)N[C@@H](Cc1ccc(O)cc1)C(=O)N[C@@H](CC(C)C)C(=O)O	HLA class I histocompatibility antigen, A alpha chain, allele A*01:01 (Homo sapiens, UniProt P04439)	binding				IC50	2.8 µM
CSCC[C@H](NC(=O)c1ccc2c(c1)C(=O)OC21c2ccc(N(C)C)cc2Oc2cc(N(C)C)ccc21)C(=O)N[C@@H](CO)C(=O)N[C@@H](CCCNC(=N)N)C(=O)N[C@@H](CC(=O)O)C(=O)N[C@H](C(=O)N[C@@H](Cc1ccc(O)cc1)C(=O)N[C@@H](CO)C(=O)N[C@H](C(=O)N[C@@H](CC(=O)O)C(=O)N[C@@H](Cc1ccc(OP(=O)(O)O)cc1)C(=O)N[C@@H](Cc1ccc(O)cc1)C(=O)N[C@@H](CCCNC(=N)N)C(=O)N[C@H](C(=O)NCC(=O)NCC(=O)N[C@@H](Cc1c[nH]cn1)C(=O)N[C@H](C(=O)N[C@@H](CC(=O)O)C(=O)O)[C@@H](C)O)C(C)C)[C@@H](C)O)C(C)C	1-phosphatidylinositol 4,5-bisphosphate phosphodiesterase gamma-2, SH2 domain (PLCG2, Homo sapiens, UniProt P16885)	binding				Kd	1.7 µM
CSCC[C@H](NC(=O)[C@@H](NC(=O)[C@H](CC(C)C)NC(=O)[C@@H](NC(=O)[C@H](CCCCN)NC(=O)[C@H](CC(N)=O)NC(=O)[C@H](Cc1ccc(O)cc1)NC(=O)[C@H](CCSC)NC(=O)[C@@H](N)CCCNC(=N)N)[C@@H](C)O)[C@@H](C)O)C(=O)O	HLA class I histocompatibility antigen, A alpha chain allele A*02:01	binding				IC50	1.56 µM
O=S(=O)(NCc1ccnc(OC2CCOC2)c1)c1cccc(Cl)c1O (stereo not drawn)	ampC					Ki	133 µM
O=C(O)C[C@H](NC(=O)[C@H](CC(=O)O)NC(=O)[C@H](CC(=O)O)NC(=O)[C@H](CC(=O)O)NC(=O)[C@H](CC(=O)O)NC(=O)[C@H](CC(=O)O)NC(=O)[C@H](CC(=O)O)NC(=O)[C@H](CC(=O)O)NC(=O)[C@H](CC(=O)O)NC(=O)[C@H](CC(=O)O)NC(=O)[C@H](CC(=O)O)NC(=O)[C@H](CCCCNC(=O)c1ccc(C(=O)NCCOCCOB2BBBBBB3BBBB3B2)cc1)NC(=O)CN1CCN(CC(=O)O)CCN(CC(=O)O)CCN(CC(=O)O)CC1)C(=O)O [gallium-67 labelled]		gamma counting	ddY mouse, male, 6 weeks old, spleen	intravenous, 37 kBq, 10 min		tissue uptake	1.04 %ID/g
CC[C@H](C)[C@H](NC(=O)[C@@H](N)CCCCN)C(=O)N[C@@H](Cc1ccccc1)C(=O)N1CCC[C@H]1C(=O)N[C@@H](CCCCN)C(=O)N1CCC[C@H]1C(=O)N[C@@H](CC(C)C)C(=O)N[C@@H](Cc1ccc(O)cc1)C(=O)N[C@@H](CCSC)C(=O)O	HLA class I histocompatibility antigen, A alpha chain allele A*24:02	binding				IC50	27.7 µM

Compound	tested on	test	system	setting	scale	measurement	result
Nc1nc2c(ncn2[C@@H]2O[C@H](COP(=O)(O)OP(O)(O)=S)[C@@H](O)[C@H]2O)c(=O)[nH]1	OPRM1/GNAI1 (Homo sapiens, UniProt P35372+P63096)	MOR-Gi coupling	HEK293F	ratio 1:2		IC50	0.0458 µM and 0.0496 µM and 0.0543 µM
C[C@H]1O[C@@H](Oc2ccccc2[N+](=O)[O-])[C@H](O)[C@@H](O)[C@H]1O	lacI (Escherichia coli, UniProt P03023, D149A/N125A)	operator DNA binding, nitrocellulose filter binding		together with: O1 operator DNA		EC50	> 100 µM
CC[C@H](C)[C@H](NC(=O)c1ccc2c(c1)C(=O)OC21c2ccc(N(C)C)cc2Oc2cc(N(C)C)ccc21)C(=O)N[C@@H](Cc1ccccc1)C(=O)N[C@@H](CO)C(=O)N[C@H](C(=O)N[C@@H](Cc1ccccc1)C(=O)N[C@H](C(=O)NCC(=O)N[C@@H](CCC(=O)O)C(=O)N[C@@H](Cc1c[nH]cn1)C(=O)N[C@@H](Cc1ccc(OP(=O)(O)O)cc1)C(=O)N[C@H](C(=O)N[C@@H](Cc1c[nH]cn1)C(=O)N[C@H](C(=O)N[C@@H](CC(N)=O)C(=O)N[C@@H](C)C(=O)N[C@H](C(=O)N[C@@H](Cc1ccc(O)cc1)C(=O)N[C@@H](CC(=O)O)C(=O)O)[C@@H](C)O)C(C)C)C(C)C)[C@@H](C)CC)[C@@H](C)O	YES1 SH2 domain	binding				Kd	0.195 µM
O=S(=O)(Nc1ccccc1OCc1cscn1)c1cccc(Cl)c1O	ampC					Ki	26.7 µM
CC(C)C[C@H](NC(=O)[C@@H](N)Cc1c[nH]cn1)C(=O)N[C@@H](Cc1ccccc1)C(=O)N1CCC[C@H]1C(=O)N[C@@H](CCCNC(=N)N)C(=O)N[C@H](C(=O)N[C@@H](Cc1c[nH]cn1)C(=O)N[C@@H](Cc1ccc(O)cc1)C(=O)N[C@@H](Cc1ccccc1)C(=O)O)[C@@H](C)O	HLA class I histocompatibility antigen, A alpha chain allele A*24:02	binding				IC50	0.736 µM
COC(=O)C(Cc1ccsc1)NS(=O)(=O)c1cccc(Cl)c1O (stereo not drawn)	ampC					Ki	204 µM
CC(C)[C@H](NC(=O)[C@@H](N)CCCCN)C(=O)N[C@@H](CC(=O)O)C(=O)N1CCC[C@H]1C(=O)N[C@@H](CCCCN)C(=O)N[C@@H](Cc1ccccc1)C(=O)N[C@H](C(=O)N[C@@H](CO)C(=O)N[C@@H](Cc1ccccc1)C(=O)O)[C@@H](C)O	HLA class I histocompatibility antigen, A alpha chain allele A*24:02	binding				IC50	19.2 µM
COC(=O)c1cc(CNS(=O)(=O)c2cc(Cl)cc(Cl)c2O)ccc1Cl	ampC					Ki	66.9 µM
CC[C@H](C)[C@@H]1NC(=O)[C@@H]2CCCN2C(=O)[C@H](CC(C)C)NC(=O)[C@H](CC(C)C)NC(=O)CNC(=O)[C@@H](NC(=O)[C@@H](NC(=O)[C@H](CC(=O)O)NC(=O)CNC(=O)[C@@H](NC(=O)[C@H](C)NC(=O)CNC(=O)[C@H](CCCCN)NC(=O)[C@H](CC(C)C)NC(=O)[C@H](CC(C)C)NC(=O)[C@H](CCCCN)NC(=O)CNC(=O)[C@@H](NC(=O)[C@@H](N)CC(C)C)C(C)C)C(C)C)C(C)C)CSSC[C@@H](C(=O)O)NC1=O		RNA-seq, refers to: novel.181 mRNA	mouse traumatic brain injury, frontal cortex and hippocampus	dose not given	baseline: TBI plus compound vs TBI	log2 fold change	-1.67
COc1cc2c(Oc3ccc4[nH]c(C)cc4c3F)ccnc2cc1OCC1(N)CC1			paediatric recurrent refractory sarcoma	12 mg		grade 3 Hypertension	0%
CO[C@@H]1[C@@H](OC(N)=O)[C@@H](O)[C@H](Oc2ccc3c(O)c(NC(=O)c4ccc(O)c(CC=C(C)C)c4)c(=O)oc3c2C)OC1(C)C	Multidrug resistance operon repressor (mexR, Pseudomonas aeruginosa, UniProt P52003, C62A/M61A/Q60A)					Kd	527 µM
CSCC[C@H](NC(=O)[C@@H](N)Cc1ccc(O)cc1)C(=O)N[C@@H](Cc1ccc(O)cc1)C(=O)N[C@H](C(=O)N[C@@H](CCCCN)C(=O)N[C@@H](Cc1ccccc1)C(=O)N[C@@H](Cc1c[nH]cn1)C(=O)N[C@H](C(=O)N[C@@H](Cc1ccc(O)cc1)C(=O)O)[C@@H](C)O)[C@@H](C)O	HLA class I histocompatibility antigen, A alpha chain allele A*02:01	binding				IC50	15 µM
CO[C@H]1C[C@@H]2CC[C@@H](C)[C@@](O)(O2)C(=O)C(=O)N2CCCC[C@H]2C(=O)O[C@H]([C@H](C)C[C@@H]2CC[C@@H](OC(=O)NCCOCCOCCOCCOCCOCCOCCOCCOCCC(=O)N3CCc4cc(Cn5nc(-c6ccc7oc(N)nc7c6)c6c(N)ncnc65)ccc4C3)[C@H](OC)C2)C[C@@H](O)[C@H](C)/C=C(\C)[C@@H](O)[C@@H](OC)C(=O)[C@H](C)C[C@H](C)/C=C/C=C/C=C/1C			patients with advanced solid tumours	intravenous, 16 mg weekly, grade 3 or higher		dysgeusia incidence	0%
C[C@@H](O)[C@H](NC(=O)[C@@H]1CSSC[C@H](NC(=O)[C@@H](Cc2ccccc2)NC(=O)CN2CCN(CC(=O)[O-])CCN(CC(=O)[O-])CCN(CC(=O)[O-])CC2)C(=O)N[C@@H](Cc2ccc(O)cc2)C(=O)N[C@H](Cc2c[nH]c3ccccc23)C(=O)N[C@@H](CCCCN)C(=O)N[C@@H]([C@@H](C)O)C(=O)N1)C(=O)O.[177Lu+3]	MEC1 treated with 200 µM zebularine	gamma counter		240 min efflux after 2 h loading		retention	27.4%
COc1c(CCC[P+](c2ccccc2)(c2ccccc2)c2ccccc2)cc2c(c1OC)OCO2.[I-]	EKVX	SRB				LC50	> -4 log M
CC[C@H](C)[C@H](NC(=O)c1ccc2c(c1)C(=O)OC21c2ccc(N(C)C)cc2Oc2cc(N(C)C)ccc21)C(=O)N[C@@H](CCC(=O)O)C(=O)N[C@@H](CO)C(=O)N[C@@H](CO)C(=O)N[C@@H](CC(N)=O)C(=O)N[C@@H](Cc1ccc(O)cc1)C(=O)N[C@@H](CCSC)C(=O)N[C@@H](C)C(=O)N1CCC[C@H]1C(=O)N[C@@H](Cc1ccc(OP(=O)(O)O)cc1)C(=O)N[C@@H](CC(=O)O)C(=O)N[C@@H](CC(N)=O)C(=O)N[C@@H](Cc1ccc(O)cc1)C(=O)N[C@H](C(=O)N1CCC[C@H]1C(=O)N[C@@H](CO)C(=O)N[C@@H](C)C(=O)N[C@@H](CC(=O)O)C(=O)O)C(C)C	YES1 SH2 domain	binding				Kd	1.85 µM
